# Published values collected from several papers.
# Each line is one published result; not all experiments were run side by side. Several values in a cell are separate wells, animals, samples, runs or records. Numbers after ± are the reported error.
# UniProt Q63HM1, sequence (whole entry, looked up): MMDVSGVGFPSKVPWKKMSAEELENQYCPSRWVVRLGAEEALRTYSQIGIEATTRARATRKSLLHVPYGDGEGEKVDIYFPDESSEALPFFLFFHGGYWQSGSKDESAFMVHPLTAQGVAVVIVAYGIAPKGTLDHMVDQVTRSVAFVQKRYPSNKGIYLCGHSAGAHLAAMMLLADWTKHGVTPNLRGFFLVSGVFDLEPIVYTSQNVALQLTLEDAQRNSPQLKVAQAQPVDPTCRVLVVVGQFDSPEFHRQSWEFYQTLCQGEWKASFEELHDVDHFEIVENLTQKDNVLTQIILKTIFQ
# UniProt Q9Y5L0, sequence (whole entry, looked up): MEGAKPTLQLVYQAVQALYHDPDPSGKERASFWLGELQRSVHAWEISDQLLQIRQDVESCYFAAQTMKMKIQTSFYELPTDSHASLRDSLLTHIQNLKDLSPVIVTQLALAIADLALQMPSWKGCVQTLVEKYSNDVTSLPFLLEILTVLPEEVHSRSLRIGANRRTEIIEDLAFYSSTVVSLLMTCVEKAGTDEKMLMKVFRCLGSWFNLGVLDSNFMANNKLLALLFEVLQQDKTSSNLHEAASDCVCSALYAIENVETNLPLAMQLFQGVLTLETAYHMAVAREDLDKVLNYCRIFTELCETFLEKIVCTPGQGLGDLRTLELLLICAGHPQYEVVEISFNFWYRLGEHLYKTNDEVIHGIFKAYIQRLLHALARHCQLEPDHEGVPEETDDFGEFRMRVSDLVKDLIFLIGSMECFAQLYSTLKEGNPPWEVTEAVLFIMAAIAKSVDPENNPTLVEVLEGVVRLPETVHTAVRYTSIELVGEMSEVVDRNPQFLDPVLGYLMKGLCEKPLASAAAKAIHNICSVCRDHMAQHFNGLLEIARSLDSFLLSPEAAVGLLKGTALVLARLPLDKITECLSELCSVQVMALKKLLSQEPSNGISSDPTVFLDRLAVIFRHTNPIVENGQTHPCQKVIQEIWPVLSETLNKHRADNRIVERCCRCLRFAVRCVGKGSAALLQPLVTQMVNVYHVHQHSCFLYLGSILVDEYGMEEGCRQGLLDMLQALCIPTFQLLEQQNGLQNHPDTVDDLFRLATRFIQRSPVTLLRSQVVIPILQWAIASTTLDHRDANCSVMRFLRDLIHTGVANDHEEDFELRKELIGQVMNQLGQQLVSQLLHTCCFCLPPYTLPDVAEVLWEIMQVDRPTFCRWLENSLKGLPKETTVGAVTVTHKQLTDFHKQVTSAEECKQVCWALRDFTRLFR
SMILES,tested on,assay,test system,conditions,scale,measurement,result
C[C@H]1CCC/C=C/[C@@H]2C[C@H](O)C[C@H]2[C@H](O)/C=C/C(=O)O1,Toxoplasma gondii,"parasite growth, luciferase reporter","HFF, tachyzoite",72 h,,EC90,73 nM
CC(=O)NCC(=O)N1[C@@H]2CC[C@H]1c1ccc(Nc3ncc(C(F)(F)F)c(NC4CCC4)n3)cc12,mouse hepatitis virus,viral replication,nanoluciferase reporter,1 µM,,inhibition,58%
COC(=O)[C@@H]1[C@@H](c2ccccc2)[C@]2(c3ccc(OC)cc3)Oc3cc(OC)cc(OC)c3[C@@]23N=C(C)N[C@@]13O,Hepatitis E virus,viral replication,"HepG2 HEV-3 replicon, genotype 3 wild boar isolate",24 h,,EC50,2.95 nM
CCCCCCCCCC(=O)N[C@@H](Cc1c[nH]c2ccccc12)C(=O)N[C@H](CC(N)=O)C(=O)N[C@@H](CC(=O)O)C(=O)N[C@@H]1C(=O)NCC(=O)N[C@@H](CCCN)C(=O)N[C@@H](CC(=O)O)C(=O)N[C@H](C)C(=O)N[C@@H](CC(=O)O)C(=O)NCC(=O)N[C@H](CO)C(=O)N[C@@H]([C@H](C)CC(=O)O)C(=O)N[C@@H](CC(=O)c2ccccc2N)C(=O)O[C@@H]1C,Streptococcus pyogenes,,,,,MIC90,0.06 µg/mL
O=[N+]([O-])c1cc2c(ccc3c4cc([N+](=O)[O-])oc4ccc23)o1,Salmonella enterica,REMA,,,,MIC90,< 0.25 µg/mL
CO[C@H]1C[C@@H]2CC[C@@H](C)[C@@](O)(O2)C(=O)C(=O)N2CCCC[C@H]2C(=O)O[C@H]([C@H](C)C[C@@H]2CC[C@@H](OC(=O)NCCOCCOCCOCCOCCOCCOCCOCCOCCC(=O)N3CCc4cc(Cn5nc(-c6ccc7oc(N)nc7c6)c6c(N)ncnc65)ccc4C3)[C@H](OC)C2)C[C@@H](O)[C@H](C)/C=C(\C)[C@@H](O)[C@@H](OC)C(=O)[C@H](C)C[C@H](C)/C=C/C=C/C=C/1C,,,patients with advanced solid tumours,"intravenous, 8 mg weekly, any grade",,mucositis incidence,56.3%
Fc1ccc(C(OCCN2CCN(CCCc3ccccc3)CC2)c2ccc(F)cc2)cc1,Toxoplasma gondii,parasite growth,"HFF, bradyzoite, glutamine-induced",,,EC90,11000 nM
COc1cc(Nc2ncc(F)c(Nc3ccc4c(n3)NC(=O)C(C)(C)O4)n2)cc(OC)c1OC,α-D-Glucosidase,,,,,IC50,> 10000 nM
O=C(c1cc(Cc2n[nH]c(=O)c3ccccc23)ccc1F)N1CCN(C(=O)C2CC2)CC1,human coronavirus OC43,virus-induced cell killing,MRC-5,maximum over 10 doses,,maximum inhibition,0%
CC1(C)SC2C(NC(=O)C(NC(=O)C3=C(O)C4(CC4)NC3=O)c3ccccc3)C(=O)N2C1C(=O)O (centres unmarked),Escherichia coli,,ΔtolC JW5503-1,"200 µM, added: 30 µg/mL 2,2'-bipyridyl",,zone of inhibition,17.7 mm
OB(O)c1csc2ccccc12,Staphylococcus aureus,,USA300 wild type,10 µM,reference: untreated,growth relative to untreated,59.9% and 71.4% and 73.6% and 71% and 76.4%
OC[C@H]1O[C@@H](n2ccc3c(O)ncnc32)[C@H](O)[C@@H]1O,Toxoplasma gondii,[3H]uracil incorporation,"human fibroblasts, adenosine kinase-deficient",25 µM,,parasite survival,100%
O=C1NC(=O)N(CCc2ccc(F)cc2)C(=O)/C1=C/C=C/c1ccccc1,Mus musculus,"gene silencing, high-content imaging",LDR reporter GFP cells,retest run 1,,maximal activity,49%
O=C(c1ccc(Cl)cc1)N1CCN2C(=O)N(OC(=O)N3CCOc4ccccc43)C(=O)C2C1 (centres unmarked),"Kynurenine formamidase (AFMID, Homo sapiens, UniProt Q63HM1)",MS-based ABPP,SW-620 conditioned medium,"10 µM, 1 h, 37 °C","reference: compound over DMSO, lower = more inhibition",peptide ratio,1.27
Cc1c2c(nn1C)CSCc1cc(n(C)n1)CSc1cc(c3ccccc3c1)OCCCc1c(C(=O)O)n(C)c3c-2c(Cl)ccc13,Staphylococcus aureus,"label-free proteomics, item: ald1",SA113,concentration not given,reference: untreated,protein level fold change,0.0616
CNCc1ccc(-c2[nH]c3cc(F)cc4c3c2CCNC4=O)cc1,human coronavirus OC43,virus-induced cell killing,MRC-5,maximum over 10 doses,,maximum inhibition,0%
Cc1ccc(C(=O)Nc2cccc(C(F)(F)F)c2)cc1Nc1nc(-c2cccnc2)nc2c1cnn2C,mouse hepatitis virus,viral replication,nanoluciferase reporter,1 µM,,inhibition,57%
C[C@H]1CN(c2n[nH]c3nc(N[C@H]4CC[C@H](NS(=O)(=O)CCC(F)(F)F)CC4)ncc23)CCO1,"Transportin-3 (Homo sapiens, UniProt Q9Y5L0)","Kinobeads competition, item: TNPO3",,"0.032 µM, unit not given",reference: vehicle,remaining binding,1.16
CN1CC[C@@H](c2c(O)cc(O)c3c(=O)cc(-c4ccc(C(F)(F)F)cc4Cl)oc23)[C@@H]1CO,,item: Hypotension,relapsed B-cell malignancies,"oral, 150 mg, grade 3-4, intermittent dosing",,patients with adverse event,0%
COc1cc2c(cc1O)CC[C@@H]1[C@@H]2CC[C@]2(C)[C@@H](O)CC[C@@H]12,human coronavirus OC43,virus-induced cell killing,MRC-5,screen,,maximum inhibition,2.11%
C[C@@H](O)[C@@H](CO)NC(=O)[C@@H](CCCNC(=N)N)NC(=O)[C@@H]1CCCN1C(=O)[C@@H]1CSSC[C@H](NC(=O)[C@H](Cc2ccccc2)NC(=O)CN2CCN(CC(=O)O)CCN(CC(=O)O)CCN(CC(=O)O)CC2)C(=O)N[C@@H](Cc2ccc(O)cc2)C(=O)N[C@@H](Cc2ccccc2)C(=O)N[C@@H](CCC(N)=O)C(=O)N[C@@H](CC(N)=O)C(=O)N1 [gallium-68 labelled],,,"healthy Wistar rat, large intestine","intravenous, 8 MBq, 120 min",,tissue uptake,0.02 %ID/g
COc1cc(CCC[P+](c2ccccc2)(c2ccccc2)c2ccccc2)c(OC)c2c1OCO2.[I-],OVCAR-5,SRB,,,,TGI,-4.43 log M
Cn1c(=O)ccc2ccc(F)c(CCNC[C@H]3CN(c4cnc5c(n4)NC(=O)CO5)C(=O)O3)c21,Serratia marcescens,,,,,MIC90,1 µg/mL
COc1ccc2ccc3oc([N+](=O)[O-])cc3c2c1Br,Mycobacteroides abscessus,REMA,ATCC 19977,,,MIC90,8 µg/mL
COC(=O)N[C@H](C(=O)N1CCC[C@H]1c1ncc(-c2ccc(-c3ccc(-c4cnc([C@@H]5CCCN5C(=O)[C@@H](NC(=O)OC)C(C)C)[nH]4)cc3)cc2)[nH]1)C(C)C,hepatitis C virus,HCV replicon,,"75% effect level, added: IFN-α, ratio 1:2.5",,combination index,0.66 and 1.06 and 0.88
N=C(N)NCCC[C@H](NC(=O)[C@H](Cc1c[nH]c2ccccc12)NC(=O)[C@H](CCCNC(=N)N)NC(=O)[C@H](Cc1c[nH]c2ccccc12)NC(=O)[C@H](Cc1c[nH]c2ccccc12)NC(=O)[C@H](Cc1c[nH]c2ccccc12)NC(=O)[C@H](CCCNC(=N)N)NC(=O)[C@H](Cc1c[nH]c2ccccc12)NC(=O)[C@@H](N)CCCNC(=N)N)C(=O)N[C@@H](Cc1c[nH]c2ccccc12)C(N)=O,Candida albicans,broth microdilution,"CGMCC 2.209, RPMI 1640-MOPS","48 h, 30 °C, added: CaCl2 2 mM",,MIC,32 µM
COc1c(CCC[P+](c2ccccc2)(c2ccccc2)c2ccccc2)cc2c(c1OC)OCO2.[I-],SW-620,SRB,,,,TGI,-4.96 log M
Nc1c([N+](=O)[O-])oc2ccc3ccccc3c12,Salmonella enterica,REMA,,,,MIC90,16 µg/mL
CC[C@H](C)[C@H](NC(=O)[C@H](C)NC(=O)[C@H](CCCCN)NC(=O)[C@H](CC(C)C)NC(=O)[C@H](C)NC(=O)[C@@H](NC(=O)[C@H](Cc1c[nH]cn1)NC(=O)[C@H](CC(C)C)NC(=O)[C@@H](NC(=O)[C@@H](NC(=O)[C@H](CCCCN)NC(=O)[C@H](C)NC(=O)[C@H](C)NC(=O)[C@H](CO)NC(=O)[C@H](CCCCN)NC(=O)[C@H](Cc1ccccc1)NC(=O)[C@@H](NC(=O)[C@H](CCCCN)NC(=O)[C@H](CC(C)C)NC(=O)[C@H](Cc1ccccc1)NC(=O)[C@H](CO)NC(=O)[C@H](CCCCN)NC(=O)[C@H](Cc1c[nH]c2ccccc12)NC(=O)[C@H](CCCCN)NC(C)=O)[C@@H](C)O)[C@@H](C)O)C(C)C)[C@@H](C)O)C(=O)N[C@@H](CO)C(=O)N[C@@H](CO)C(N)=O,Streptococcus pyogenes,,ATCC 19615,1 strain,,MIC50,8 µg/mL
C[C@@H](NC(=O)Nc1cc2[nH]ncc2c(CO)n1)c1ccccc1,mouse hepatitis virus,viral replication,nanoluciferase reporter,1 µM,,inhibition,27%
CCCCCCCCCCC[C@@H](C[C@@H]1OC(=O)[C@H]1CCCCCC)OC(=O)[C@H](CC(C)C)NC=O,human coronavirus OC43,virus-induced cell killing,MRC-5,screen,,maximum inhibition,51.4%
c1ccc2c(c1)[I+]c1ccccc1-2,Toxoplasma gondii,,,tachyzoites,,EC90,284 nM
CNC[C@H](O)[C@@H](O)[C@H](O)[C@H](O)CO.[O]=[Sb](=[O])[OH],Leishmania major,,BALB/c mouse,"topical, dose not given, 28 days, unit not given",reference: PBS,lesion size difference,9.77
Cc1ccc(CSc2ncnc3c2ccn3[C@@H]2O[C@H](CO)[C@@H](O)[C@H]2O)cc1,Toxoplasma gondii,"intracellular parasite growth, [3H]uracil incorporation","human foreskin fibroblasts, RH wild type",,,IC50,8800 ± 700 nM
NC(=O)c1ccc(N)nc1,human coronavirus OC43,virus-induced cell killing,MRC-5,screen,,maximum inhibition,5.97%
COc1cc2c(Oc3ccc4[nH]c(C)cc4c3F)ccnc2cc1OCC1(N)CC1,,item: grade 3 blurred vision,paediatric high-risk refractory sarcoma,8 mg,,incidence of adverse event,0%
Nc1ncnc2c1ncn2[C@@H]1O[C@@H]2COP(=O)(O)O[C@H]3[C@@H](O)[C@H](n4cnc5c(=O)[nH]cnc54)O[C@@H]3COP(=O)(O)O[C@H]2[C@H]1O,West Nile virus,"RNA sequencing, item: organization, extracellular matrix, R-HSA-1474244",HFF-1 cells,"concentration not given, downregulated pathway",reference: WNV-infected untreated cells,fold enrichment,5.04
CC[C@H](C)[C@@H]1NC(=O)[C@@H]2CCCN2C(=O)[C@H](CC(C)C)NC(=O)[C@H](CC(C)C)NC(=O)CNC(=O)[C@@H](NC(=O)[C@@H](NC(=O)[C@H](CC(=O)O)NC(=O)CNC(=O)[C@@H](NC(=O)[C@H](C)NC(=O)CNC(=O)[C@H](CCCCN)NC(=O)[C@H](CC(C)C)NC(=O)[C@H](CC(C)C)NC(=O)[C@H](CCCCN)NC(=O)CNC(=O)[C@@H](NC(=O)[C@@H](N)CC(C)C)C(C)C)C(C)C)C(C)C)CSSC[C@@H](C(=O)O)NC1=O,,"RNA-seq, item: Pi15","mouse, traumatic brain injury model, frontal cortex and hippocampus",dose not given,reference: TBI alone,log2 fold change,-2.77
Nc1cccc2c1C(=O)N(C1CCC(=O)NC1=O)C2=O (centres unmarked),human coronavirus OC43,virus-induced cell killing,MRC-5,maximum over 10 doses,,maximum inhibition,1.08%
CCCCc1ccc(CNc2nc(N(C)C)nc(N(C)C)c2/N=N/c2ccc(Cl)cc2)cc1,Ostrinia furnacalis,leaf dipping,,"200 mg/L, 96 h",,mortality,93.3 ± 5.8%
Cn1cc(-c2ccc3occ(-c4ccccc4-c4ccccc4)c3n2)cn1,mouse hepatitis virus,viral replication,nanoluciferase reporter,1 µM,,inhibition,9%
CC[C@H](C)[C@H](NC(=O)[C@H](Cc1ccccc1)NC(=O)[C@H](CCC(=O)O)NC(=O)[C@H](CCCNC(=N)N)NC(=O)[C@H](C)NC(=O)[C@H](C)NC(=O)[C@H](CCC(N)=O)NC(=O)[C@H](CCC(=O)O)NC(=O)[C@H](CCC(=O)O)NC(=O)[C@H](CC(C)C)NC(=O)[C@H](Cc1ccc(O)cc1)NC(=O)[C@H](CO)NC(=O)[C@H](CO)NC(=O)[C@@H](NC(=O)[C@H](CC(=O)O)NC(=O)[C@H](CO)NC(=O)[C@@H](NC(=O)[C@H](Cc1ccccc1)NC(=O)[C@@H](NC(=O)CNC(=O)[C@H](CCC(=O)O)NC(=O)[C@H](C)NC(=O)CCc1c[nH]cn1)[C@@H](C)O)[C@@H](C)O)C(C)C)C(=O)N[C@@H](C)C(=O)N[C@@H](Cc1c[nH]c2ccccc12)C(=O)N[C@@H](CC(C)C)C(=O)N[C@H](C(=O)N[C@@H](CCCNC(=N)N)C(=O)NCC(=O)N[C@@H](CCCNC(=N)N)C(=O)N[C@@H](CCCCNC(=O)COCCOCCNC(=O)COCCOCCNC(=O)CC[C@H](NC(=O)CCCCCCCCCCCCCCCCC(=O)O)C(=O)O)C(=O)NCC(=O)NCC(=O)N[C@@H](CO)C(=O)N[C@@H](CCCCNc1c(NCCCCCN(O)C(=O)CCC(=O)NCCCCCN(O)C(=O)CCC(=O)NCCCCCN(O)C(C)=O)c(=O)c1=O)C(=O)O)C(C)C [zirconium-89 labelled],,ex vivo gamma counting,"rat, colon content","subcutaneous, 3 nmol/kg, 24 h, added: [89Zr]-labelled peptide",,tissue uptake,0.24 %ID/g
Cc1csc(-c2nnc(Nc3ccc(Oc4ncccc4-c4ccnc(N)n4)cc3)c3ccccc23)c1,human coronavirus OC43,virus-induced cell killing,MRC-5,screen,,maximum inhibition,3.87%
C[C@H]1c2cccc(O)c2C(=O)C2=C(O)[C@]3(O)C(=O)C(C(N)=O)=C(O)[C@@H](N(C)C)[C@@H]3[C@@H](O)[C@@H]21,"Staphylococcus, coagulase-negative",,,,,MIC90,4 µg/mL
COc1ccc2c(ccc3oc([N+](=O)[O-])c(C)c32)c1,Salmonella enterica,REMA,,,,MIC90,> 32 µg/mL
O=C(Nc1ccccc1-c1cn2c(CN3CCNCC3)csc2n1)c1cnc2ccccc2n1,human coronavirus OC43,virus-induced cell killing,MRC-5,maximum over 10 doses,,maximum inhibition,0%
OC[C@H]1O[C@@H](n2ccc3c(SCc4ccc(Cl)cc4Cl)ncnc32)[C@H](O)[C@@H]1O,Toxoplasma gondii,[3H]uracil incorporation,"human fibroblasts, RH wild type",5 µM,,survival,82.3%
